Results from different studies.
Each numbered part is a random draw from the data of one study; scales do not carry over between parts. Values joined by “and” are separate records of one study, mostly repeats; a detail may differ.
UniProt P47898, sequence (whole entry, looked up): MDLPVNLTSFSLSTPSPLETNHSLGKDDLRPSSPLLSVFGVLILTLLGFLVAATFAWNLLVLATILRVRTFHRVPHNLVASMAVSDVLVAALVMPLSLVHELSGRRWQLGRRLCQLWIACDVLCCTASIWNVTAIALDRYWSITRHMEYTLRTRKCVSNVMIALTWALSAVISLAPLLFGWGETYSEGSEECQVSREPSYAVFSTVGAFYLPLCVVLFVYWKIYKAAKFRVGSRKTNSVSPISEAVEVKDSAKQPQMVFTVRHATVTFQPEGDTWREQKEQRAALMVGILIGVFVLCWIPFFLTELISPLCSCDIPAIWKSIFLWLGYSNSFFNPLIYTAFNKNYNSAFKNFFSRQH
UniProt Q99720, sequence (whole entry, looked up): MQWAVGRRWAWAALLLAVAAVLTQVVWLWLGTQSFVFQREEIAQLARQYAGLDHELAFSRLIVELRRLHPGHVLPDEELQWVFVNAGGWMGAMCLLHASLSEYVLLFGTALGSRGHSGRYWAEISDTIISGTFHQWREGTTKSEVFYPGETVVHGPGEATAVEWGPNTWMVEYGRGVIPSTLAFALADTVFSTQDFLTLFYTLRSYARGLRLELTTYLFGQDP

Series 1
Cell line: mouse MPNST tumor cells
Technique: high-content nuclear imaging
Refers to: cell number
Concentration: 10 µM
Time: 12 h
Setting: mean of 2 replicates
Relative to: plate mean
Reading: higher = more cells
Quantity: nuclei count
COCc1ccc(-c2cc3c(N[C@@H](C)c4ccn(C)n4)c(C(N)=O)cnc3cc2F)cn1: 2.63 z-score
N#Cc1ccc(COC[C@H]2O[C@@H](n3c(NCc4ccc(Cl)c(Cl)c4)nc4c(N)ncnc43)[C@H](O)[C@@H]2O)cc1: 1.42 z-score
O=C(OCCN1CCOCC1)C1(c2ccccc2)CCCCC1: 0.528 z-score
CCOC(=O)c1ccc(C#Cc2ccc3c(c2)C(C)(C)CCS3)nc1: -0.997 z-score
Cc1c(-c2ccc(O)cc2)nn(-c2ccc(O)cc2)c1-c1ccc(OCCN2CCCCC2)cc1: -6.14 z-score
CCCC[C@@H](C=O)NC(=O)[C@H](CC(C)C)NC(=O)OCc1ccccc1: 1.29 z-score
CC(COc1ccccc1)NC(C)C(O)c1ccc(O)cc1 (stereo not drawn): 0.464 z-score
Cc1c(C(N)=O)nc2n1C[C@@H](COc1ccc(C(C)(C)C)cc1)O2: -0.214 z-score
CN(C)[C@@H]1CCN(c2cc(-c3ccccc3)nc3ccnn23)C1: 0.438 z-score
CC(C)(C)NCC(O)COc1cccc2c1CC(O)C(O)C2 (stereo not drawn): -0.759 z-score
O=C(O)c1ccccc1Nc1cccc(OCc2ccc3ccccc3n2)c1: -0.414 z-score
CC(=O)Oc1cccc2c1C(=O)c1c(OC(C)=O)cc(C(=O)O)cc1C2=O: -0.677 z-score and 1.26 z-score
CN1C(=O)N(c2cc(Cl)cc(Cl)c2)C(=O)[C@]12CN(c1ccc(C(=O)O)cn1)C[C@H]2c1ccc(C#N)cc1: 0.118 z-score
CCN1CCN(Cc2ccc(C(=O)Nc3ccc(C)c(Oc4ccc5c(c4)CC(=O)N5)c3)cc2C(F)(F)F)CC1: -4.84 z-score
CC(=O)NNC(=O)N1Cc2ccccc2Oc2ccc(Cl)cc21: 0.189 z-score
COc1cc(N2CCN(C)CC2)ccc1Nc1ncc2c(n1)N(C)c1ccccc1C(=O)N2: -0.507 z-score
N[C@@H](CC(=O)N1CCn2c(nnc2C(F)(F)F)C1)Cc1[nH]nc2c(F)c(F)ccc12: -0.39 z-score
CNCCN1CCC(c2cc(CN(C)C(=O)c3cccc(Oc4ccccc4)c3)ccn2)CC1: 0.628 z-score and 0.646 z-score
CC(=O)CCCCn1c(=O)c2c(ncn2C)n(C)c1=O: 1.1 z-score

Series 2
SMILES: COc1cc(C(=O)N2CCC(N3CCN(C)CC3)CC2)ccc1Nc1ncc2c(n1)N(C)c1ccccc1C(=O)N2C
Technique: KINOMEscan
Concentration: 10 µM
Relative to: DMSO control
Reading: lower = stronger binding
Quantity: binding
VRK2: 99%
MLK3: 100%
MLK1: 93%
TAOK3: 24%
TGFBR1: 100%
MKK7: 100%
MST3: 87%
ERK3: 100%
RIPK4: 74%
DCAMKL3: 90%
PIM1: 100%
ULK1: 80%
IRAK4: 83%
CDK3: 100%
MEK5: 85%
TGFBR2: 100%
SNRK: 94%
PRKG2: 74%
EPHA2: 92%
MEK6: 83%

Series 3
Target: NUAK family SNF1-like kinase 2 (NUAK2, Homo sapiens, UniProt Q9H093)
Read-out: enzyme activity
Action: inhibitor
Concentration: 0.5 µM
Relative to: control
Quantity: remaining activity
Target sequence (Q9H093 1-628): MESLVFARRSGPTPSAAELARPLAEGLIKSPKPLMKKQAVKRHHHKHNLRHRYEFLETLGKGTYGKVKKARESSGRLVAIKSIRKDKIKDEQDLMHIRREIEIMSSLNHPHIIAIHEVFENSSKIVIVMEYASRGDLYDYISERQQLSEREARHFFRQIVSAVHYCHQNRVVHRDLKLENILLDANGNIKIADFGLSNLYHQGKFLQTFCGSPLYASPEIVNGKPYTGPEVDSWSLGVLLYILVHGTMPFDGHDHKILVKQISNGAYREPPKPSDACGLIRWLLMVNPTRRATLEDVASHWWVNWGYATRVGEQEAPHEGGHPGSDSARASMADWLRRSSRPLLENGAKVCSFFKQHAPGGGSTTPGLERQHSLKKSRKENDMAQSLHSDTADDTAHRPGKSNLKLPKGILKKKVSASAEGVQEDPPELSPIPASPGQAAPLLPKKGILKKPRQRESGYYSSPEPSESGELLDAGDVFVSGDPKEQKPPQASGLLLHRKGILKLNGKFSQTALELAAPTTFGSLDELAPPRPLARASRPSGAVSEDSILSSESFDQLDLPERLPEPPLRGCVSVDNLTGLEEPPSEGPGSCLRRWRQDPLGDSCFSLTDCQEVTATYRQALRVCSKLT
Cn1nc2c3c(cccc31)C(=O)c1ccccc1-2: 85.7%
COc1cc2ncnc(Nc3cccc(Cl)c3)c2cc1OC: 142%
C[C@@H]1CCN(C(=O)CC#N)C[C@@H]1N(C)c1ncnc2[nH]ccc12: 80.3%
Cc1cn(-c2cc(NC(=O)c3ccc(C)c(Nc4nccc(-c5cccnc5)n4)c3)cc(C(F)(F)F)c2)cn1: 101%
O=C(NC(NC(=S)Nc1ccc(F)c([N+](=O)[O-])c1)C(Cl)(Cl)Cl)C(c1ccccc1)c1ccccc1 (stereo not drawn): 108%
c1ccc(-c2cnc(Nc3ccc(OCCN4CCCC4)cc3)s2)cc1: 107%
O=C(Nc1cccc(Nc2nccc(Nc3cccc(C(F)(F)F)c3)n2)c1)C1CC1: 94.3%
Nc1cccc(-c2cc3c(Oc4cccc(O)c4)ncnc3[nH]2)c1: 90.3%
N#Cc1c(NC(=O)c2cccc3ccccc23)sc2c1CCCC2: 76.7%
O=C1c2ccccc2-c2n[nH]c3cccc1c23: 80.7%
CCOc1nc(NC(=O)Cc2cc(OC)ccc2OC)cc(N)c1C#N: 72%
COc1cc2ncnc(Nc3ccc(O)c(Br)c3)c2cc1OC: 88.3%
Ic1cccc(CSc2nnc(-c3ccncc3)o2)c1: 98.9%
CN([C@@H](Cc1ccc(OS(=O)(=O)c2cccc3cnccc23)cc1)C(=O)N1CCN(c2ccccc2)CC1)S(=O)(=O)c1cccc2cnccc12: 88.7%
COc1cc2c(cc1OC)-c1[nH]nc(Nc3cccc(F)c3)c1C2: 94.6%
c1ccc(-c2[nH]ncc2-c2ccnc3ccccc23)nc1: 135%
N#C/C(=C\c1ccc(O)c(O)c1)C(=O)NCc1ccccc1: 131%
O=C1C(Cl)=C(N2C(=O)CCC2=O)C(=O)c2ccccc21: 86.7%
CCN(CC)C(=O)c1ccc(Nc2nc(OCC3CCCCC3)c3[nH]cnc3n2)cc1: 23.1%
Cc1cc2ncc(-c3ccccc3)nc2cc1C: 124%
O=c1cc(-c2cccc3c2Sc2ccccc2S3)oc(N2CCOCC2)c1: 109%
CCN(CC)CCNC(=O)c1c(C)[nH]c(/C=C2\C(=O)Nc3ccc(Cl)cc32)c1C: 70.7%
CCN(CC)CCNC(=O)c1c(C)[nH]c(/C=C2\C(=O)Nc3ccc(F)cc32)c1C: 65%
Cc1nc2cc3nc(-c4cccs4)cnc3cc2n1C: 96.7%
CN(C)C[C@H]1CCn2c(c(C3=C(c4cn(C)c5ccccc45)C(=O)NC3=O)c3ccccc32)C1: 121%

Other studies, line by line
COc1cccc(NC(=O)c2nc3scc(CN(C)Cc4ccccc4)c3c(=O)[nH]2)c1  Ki (Sigma non-opioid intracellular receptor 1 (SIGMAR1, Homo sapiens, UniProt Q99720); binding, radioligand binding): 263 nM
O=C(O)c1cc(-c2ccc(C3CCNCC3)cc2)c2ccc(-c3ccc(C(F)(F)F)cc3)cc2c1  inhibition (5-hydroxytryptamine receptor 5A (HTR5A, Homo sapiens, UniProt P47898); ligand displacement; 10 µM): 4.98%

Some of these lines once more (series 3):
O=C(NC(NC(=S)Nc1ccc(F)c([N+](=O)[O-])c1)C(Cl)(Cl)Cl)C(c1ccccc1)c1ccccc1 (stereo not drawn): 108%
Nc1cccc(-c2cc3c(Oc4cccc(O)c4)ncnc3[nH]2)c1: 90.3%
O=C1C(Cl)=C(N2C(=O)CCC2=O)C(=O)c2ccccc21: 86.7%
Cn1nc2c3c(cccc31)C(=O)c1ccccc1-2: 85.7%
O=c1cc(-c2cccc3c2Sc2ccccc2S3)oc(N2CCOCC2)c1: 109%
COc1cc2ncnc(Nc3ccc(O)c(Br)c3)c2cc1OC: 88.3%
Cc1cn(-c2cc(NC(=O)c3ccc(C)c(Nc4nccc(-c5cccnc5)n4)c3)cc(C(F)(F)F)c2)cn1: 101%
